Values quoted from earlier work as cited in several papers.
Each line is one published result; not all experiments were run side by side. ± gives the spread as reported.

Compound	test	test system	setting	how to read	quantity	value
O=S(=O)(c1ccccc1)N1CCCCC1		PBS	24 h, pH 7		recovery	100%
Oc1cc2nc(c1)CNCCCNCCCNCCNCCCNCCCNC2		0.15 M NaClO4	298.1 K, sum of protonation log K		log β	54.2
F[P-](F)(F)(F)(F)F.O=C(CCC(=O)[c-]1cccc1)NCCN(CC(=O)Nc1ccc(C#CCN(Cc2ccccn2)Cc2ccccn2)cc1)C(=O)CCc1cn(C[c-]2cccc2)nn1.[C-]#[O+].[C-]#[O+].[C-]#[O+].[C-]#[O+].[C-]#[O+].[C-]#[O+].[Mn+].[Re+].[Ru+2].c1cc[cH-]c1		water			solubility	~25 µg/mL
COC(=O)c1ccc(/C=N/NS(=O)(=O)c2ccc(OC)c(OC)c2)cc1					pKa	6.35
Cc1ccc(O)c(CN(CCN(Cc2ccccn2)Cc2ccccn2)Cc2ccccn2)c1			25 °C		pKa2	10
O=C(CCCCCCC(=O)Nc1ccccc1)NO[C@@H]1O[C@H](C(=O)O)[C@@H](O)[C@H](O)[C@H]1O		human		relative to: vorinostat	steady-state serum exposure	4 fold
CC(C)C[C@H](NC(=O)[C@H](CO)NC(=O)[C@H](CCCNC(=N)N)NC(=O)[C@H](CC(=O)O)NC(=O)[C@H](CCC(=O)O)NC(=O)[C@H](C)NC(=O)[C@@H]1CCCN1C(=O)[C@H](C)NC(=O)[C@H](CCC(=O)O)NC(=O)[C@@H]1CCCN1C(=O)[C@@H]1CCCN1)C(N)=O		saline 0.9 %	pH 7.2-7.4		stability	stable
COC(=O)c1cc(=O)n(C)c2cc(-c3ccc(OC)cc3)sc12		dichloromethane	10 µM		absolute quantum yield	90%
Nc1ncnc2c1ncn2[C@H]1C[C@H](O)[C@@H](COP(=O)(O)OP(=O)(O)C(F)(Cl)P(=O)(O)O)O1 (stereo partly shown)	item: bisphosphonate leaving group	aqueous solution	measured experimentally		pKa4	8.4
O=C([O-])CN1CCN(CC(=O)[O-])CCN(CC(=O)c2ccccc2)CCN(CC(=O)[O-])CC1.[Gd+3]			concentration not given, TSAP isomer		activation enthalpy of water exchange	6.45 kcal/mol
O=C([O-])c1cccc(CNCCNCc2cccc(C(=O)[O-])n2)n1.[64Cu+2]	item: 64Cu	mouse serum	24 h, ambient		transchelation to serum proteins	23%
CN(C)c1ccc(/C=C2\CCc3ccccc3C2=O)cc1					absorption maximum	406 nm
CN1CCc2nc(C(=O)N[C@@H]3C[C@@H](C(=O)N(C)C)CC[C@@H]3NC(=O)C(=O)Nc3ccc(Cl)cn3)sc2C1		human	share of total clearance		non-renal clearance fraction	~50%
CCOc1ccc(Cc2cc(C3OC(SC)C(O)C(O)C3OC3OC(C(=O)O)C(O)C(O)C3O)ccc2Cl)cc1 (stereo not shown)		human, plasma	dose not given, major metabolite of sotagliflozin		share of total plasma radioactivity	94%
C=CC(OS(=O)(=O)O)c1ccc(OC)cc1 (stereo not shown)	sulfonation, substrate	human liver			Km	727 µM
Cc1ccccc1-c1cc(N2CCNCC2)ncc1N(C)C(=O)C(C)(C)c1cc(C(F)(F)F)cc(C(F)(F)F)c1		healthy volunteers, plasma	oral, 450 mg, single dose, given alone		AUC(0-inf)	8180 ng·h/mL
C=CC1CC1(NC(=O)C1CC(Oc2nccc3cc(OC)ccc23)CN1C(=O)C(NC(=O)OC(C)(C)C)C(C)C)C(=O)NS(=O)(=O)C1CC1 (stereo not shown)		isolated perfused rabbit heart	10 µM		heart rate change	-32%
Cc1ccccc1-c1cc(N2CC[N+](C)([O-])CC2)ncc1N(C)C(=O)C(C)(C)c1cc(C(F)(F)F)cc(C(F)(F)F)c1		healthy volunteers, plasma	oral, dose not given, netupitant-palonosetron, fasted		Cmax	202 ng/mL
NC1=N[C@@]2(c3ccc(F)cc3F)CO[C@@H](CF)C[C@H]2CS1		human liver microsomes			intrinsic clearance	< 8 mL/min/kg
O=C([O-])CN1CCN(CC(=O)[O-])CCN(Cc2cc(-c3ccc(OCC(=O)O)cc3)cc(C(=O)[O-])n2)CCN(CC(=O)[O-])CC1.[Eu+3]					Eu3+ emission quantum yield	0.14

Compound	test	test system	setting	how to read	quantity	value
COc1cc2ncnc(Oc3ccc4c(C(N)=O)c(C)oc4c3)c2cc1OC		human, plasma	dose not given, circulating metabolite		share of plasma radioactivity	~17%
CCCCCCc1ccc(Oc2ccccc2C#N)c(O)c1		mouse	40 mg/kg		absorption rate constant	0.77 h⁻¹
COc1ccn2c(Nc3cc(F)cc(F)c3)c(-c3ccccn3)nc2c1			pH 7.4		logD	3.6
CN1CCN(c2cc(-c3ccccc3CO)c(N(C)C(=O)C(C)(C)c3cc(C(F)(F)F)cc(C(F)(F)F)c3)cn2)CC1		healthy volunteers, plasma	oral, dose not given, netupitant-palonosetron, fed		Tmax	16.7 h
COc1cc(F)c(C(C)C)cc1C1=C(CN2C(=O)O[C@H](c3cc(C(F)(F)F)cc(C(F)(F)F)c3)[C@@H]2C)CC(C)(C)CC1					logD	7.4
O=C1C2=C(CCN(Cc3ccccc3)C2)N2CCN=C2N1Cc1ccc(C(F)(F)F)cc1		rats	oral, 50 mg/kg		Cmax	1460 ng/mL
C=C[C@@H]1C[C@]1(NC(=O)[C@@H]1C[C@@H](Oc2cc(-c3ccccc3)nc3cc(OC)ccc23)CN1C(=O)[C@@H](NC(=O)OC(C)(C)C)C(C)(C)C)C(=O)NS(=O)(=O)C1CC1		dog, plasma	oral, 3 mg/kg		AUC	2 µM·h
CN1CCC(C)(C)c2cc3c(-c4ccc(C(=O)N5CCCCC5)s4)c4ccc(=[N+](C)C)cc-4sc3cc21		methanol			absorption maximum	598 nm
CC(C)(C)[C@H](NC(=O)[C@H](CCONC(=N)N)NC(=O)Cc1ccc(CNC(=N)N)cc1)C(=O)N[C@@H](CCONC(=N)N)C(=O)NCc1ccc(C(=N)N)cc1		mouse	intraperitoneal, 2.5 mg/kg		elimination half-life	0.5 h
O=C(O)CCC(=O)N([O-])CCCCCNC(=O)CCC(=O)N([O-])CCCCCNC(=O)CCC(=O)N([O-])CCCCCO.[Fe+3]	item: Fe				log stability constant	27.8 ± 0.3
CC1(C)S[C@@H]2[C@H](NC(=O)c3c(-c4c(F)cccc4Cl)noc3CO)C(=O)N2[C@H]1C(=O)O		healthy volunteers	dose not given	relative to: fluoxetine	plasma concentration	~10%
CC(=O)c1cnc(N)nc1N1CC[C@H]1c1nn2ccc(Cl)c2c(=O)n1-c1ccccc1		female Wistar rat	oral, 10 mg/kg		oral bioavailability	104 ± 18%
C=C[C@@H]1C[C@]1(NC(=O)[C@@H]1C[C@@H](Oc2ncc(OC)c3ccccc23)CN1C(=O)[C@@H](NC(=O)OC(C)(C)C)C(C)(C)C)C(=O)NS(=O)(=O)C1CC1		rat	oral, 15 mg/kg		oral bioavailability	20%
COc1cc2c(NC3CCN(C)CC3)nc(N3CCCN(C)CC3)nc2cc1OCc1ccccc1			pH 3		logD	0.9
CC(=O)N[C@H](CC(=O)O)C(=O)N[C@H](Cc1c[nH]c2ccccc12)C(=O)N[C@H](Cc1ccccc1)C(=O)N[C@H](CCCCN)C(=O)N[C@H](C)C(=O)N[C@H](Cc1ccccc1)C(=O)N[C@H](Cc1ccc(O)cc1)C(=O)N[C@H](CC(=O)O)C(=O)N[C@H](CCCCN)C(=O)N[C@@H](C(=O)N[C@H](C)C(=O)N[C@H](CCC(=O)O)C(=O)N[C@H](CCCCN)C(=O)N[C@H](Cc1ccccc1)C(=O)N[C@H](CCCCN)C(=O)N[C@H](CCC(=O)O)C(=O)N[C@H](C)C(=O)N[C@H](Cc1ccccc1)C(N)=O)C(C)C		LDLR-knockout mouse, small intestine	45 mg/kg/day	relative to: between administration routes	small intestine level ratio	1.66 ± 0.33 fold
COCCOCCOCCOCCC(=O)NCc1cc(CNC(=O)CCOCCOCCOCCOC)cc(-c2cc3cc4nc(c(OC)c5[nH]c(cc6nc(cc2[nH]3)CC6(C)C)cc5-c2cc(CNC(=O)CCOCCOCCOCCOC)cc(CNC(=O)CCOCCOCCOCCOC)c2)CC4(C)C)c1		PBS	room temperature		Qy absorption FWHM	22 nm
O=C(CCCCC[N+]#[C][99Tc-5]([C]#[N+]CCCCCC(=O)N[C@H]1C(O)O[C@H](CO)[C@@H](O)[C@@H]1O)([C]#[N+]CCCCCC(=O)N[C@H]1C(O)O[C@H](CO)[C@@H](O)[C@@H]1O)([C]#[N+]CCCCCC(=O)N[C@H]1C(O)O[C@H](CO)[C@@H](O)[C@@H]1O)([C]#[N+]CCCCCC(=O)N[C@H]1C(O)O[C@H](CO)[C@@H](O)[C@@H]1O)[C]#[N+]CCCCCC(=O)N[C@H]1C(O)O[C@H](CO)[C@@H](O)[C@@H]1O)N[C@H]1C(O)O[C@H](CO)[C@@H](O)[C@@H]1O (stereo partly shown)		mouse A549 xenograft			tumour/muscle ratio	29.7 ± 3.12
C=C[C@@H]1C[C@]1(NC(=O)[C@@H]1C[C@@H](Oc2nccc3ccccc23)CN1C(=O)[C@@H](NC(=O)OC(C)(C)C)C(C)(C)C)C(=O)NS(=O)(=O)C1CC1		rat	intravenous, dose not given		clearance	19 mL/min/kg
CC(C)Sc1ccc(SC(C)C)c(O)c(=O)c1O					pKa1	4.8
O=P(O)(O)CN1CCN(CP(=O)(O)O)CCN(CP(=O)(O)O)CCN(CP(=O)(O)O)CC1.[153Sm+3]		bone	4 h		tissue uptake	3.94 %ID/g

Some of these lines once more:
Compound	test	test system	setting	how to read	quantity	value
COC(=O)c1ccc(/C=N/NS(=O)(=O)c2ccc(OC)c(OC)c2)cc1					pKa	6.35
COc1cc2c(NC3CCN(C)CC3)nc(N3CCCN(C)CC3)nc2cc1OCc1ccccc1			pH 3		logD	0.9
CN1CCC(C)(C)c2cc3c(-c4ccc(C(=O)N5CCCCC5)s4)c4ccc(=[N+](C)C)cc-4sc3cc21		methanol			absorption maximum	598 nm
